Values quoted from earlier work that unrelated publications cite.
Lines come from different studies, so protocols differ.
Chain of UniProt Q9NWZ3 (whole entry, looked up): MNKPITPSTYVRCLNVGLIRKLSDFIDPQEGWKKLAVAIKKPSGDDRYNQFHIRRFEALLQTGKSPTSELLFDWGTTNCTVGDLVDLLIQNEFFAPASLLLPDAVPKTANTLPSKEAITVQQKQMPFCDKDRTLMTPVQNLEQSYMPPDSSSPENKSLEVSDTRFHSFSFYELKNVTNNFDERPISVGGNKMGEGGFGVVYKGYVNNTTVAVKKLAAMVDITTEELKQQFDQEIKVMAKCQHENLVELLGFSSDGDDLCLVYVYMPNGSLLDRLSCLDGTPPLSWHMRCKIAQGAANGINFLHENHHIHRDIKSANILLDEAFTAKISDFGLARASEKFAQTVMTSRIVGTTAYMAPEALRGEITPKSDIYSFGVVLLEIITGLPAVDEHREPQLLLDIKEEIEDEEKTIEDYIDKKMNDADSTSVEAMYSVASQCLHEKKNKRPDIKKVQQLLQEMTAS

SMILES	target or system	assay	test system	setting	scale	quantity	result
COc1cc(Nc2ncc(F)c(Nc3ccc4c(n3)N(COP(=O)(O)O)C(=O)C(C)(C)O4)n2)cc(OC)c1OC	human BCRP (ABCG2)	–	–	literature geometric mean	–	IC50	0.05 µM
COc1c(N2C[C@@H]3CCCN[C@@H]3C2)c(F)cc2c(=O)c(C(=O)O)cn(C3CC3)c12	OCT1	inhibitor	–	–	–	IC50	47 µM
C=C(C)[C@@H]1CC[C@]2(C)CC[C@]3(C)[C@H](CC[C@@H]4[C@@]5(C)CC[C@H](O)C(C)(C)[C@@H]5CC[C@]43C)[C@@H]12	CYP3A2 (rat)	inhibitor	rat liver microsomes	–	–	IC50	> 100 µM
CNCc1cn(S(=O)(=O)c2cccc(F)c2)c(-c2ccc(F)cc2F)c1OC	P-glycoprotein	efflux transport	–	–	–	IC50	> 100 µM
FC1(F)C(F)(F)C(F)(F)C2(F)C(F)(F)C(F)(F)C(F)(F)C(F)(F)C2(F)C1(F)F (stereo not shown)	CYP1A2	inhibitor	–	Tox21 screening	–	IC50	inactive
Nc1cc(C(F)(F)F)c(-c2nc(N3CCOCC3)nc(N3CCOCC3)n2)cn1	IRAK4 (Homo sapiens, UniProt Q9NWZ3)	enzyme activity	–	10 µM	relative to: untreated	remaining activity	100%
Cc1cccc(-c2[nH]c(CNc3ccccc3F)nc2-c2ccc3ncnn3c2)n1	MRP1	transport activity, inhibitor	–	–	–	IC50	> 100 µM
COc1cc(Nc2ncc(F)c(Nc3ccc4c(n3)NC(=O)C(C)(C)O4)n2)cc(OC)c1OC	human BCRP (ABCG2)	–	–	literature geometric mean	–	IC50	0.28 µM
CC1(C)S[C@@H]2[C@H](NC(=O)[C@H](N)c3ccccc3)C(=O)N2[C@H]1C(=O)O	Klebsiella pneumoniae	–	clinical isolate RKI-No_19/16	–	–	MIC	> 16 µg/mL
CCC(C)n1ncn(-c2ccc(N3CCN(c4ccc(OCC5COC(Cn6cncn6)(c6ccc(Cl)cc6Cl)O5)cc4)CC3)cc2)c1=O (stereo not shown)	human BCRP (ABCG2)	–	–	literature geometric mean	–	IC50	3.36 µM
FC(F)OC(Cl)C(F)(F)F (stereo not shown)	CYP2D6	inhibitor	–	Tox21 screening	–	IC50	inactive
CO[C@H]1/C=C/O[C@@]2(C)Oc3c(C)c(O)c4c(O)c(c(/C=N/N5CCN(C)CC5)c(O)c4c3C2=O)NC(=O)/C(C)=C\C=C\[C@H](C)[C@H](O)[C@@H](C)[C@@H](O)[C@@H](C)[C@H](OC(C)=O)[C@@H]1C	OATP1B1 and OATP1B3	transport, inhibitor	–	–	–	IC50	1.5 to 2.6 µM
CC(O)c1cc(C(=O)N[C@@H](C)Cn2ccc(-c3ccc(C#N)c(Cl)c3)n2)[nH]n1 (stereo partly shown)	BCRP (ABCG2)	inhibitor	–	literature minimum	–	IC50	1.3 µM
C[C@@H]1O[C@@H](Oc2c(-c3ccc(O)c(O)c3)oc3cc(O)cc(O)c3c2=O)[C@H](O)[C@H](O)[C@H]1O	CYP2C	–	–	–	–	IC50	> 100 µM
C[C@H]1COCCN1c1nc(-c2cnc(N)cc2C(F)F)nc(N2CCOCC2)n1	BT-549	–	–	–	–	GI50	0.329 µM
Cc1cc(=O)c(-c2ccc(Oc3cccc(OC(F)(F)F)c3)cc2)c(C)[nH]1	Plasmodium falciparum	whole cell extended time	3D7	72 h	–	IC50	0.2 µM
FC(F)(F)C(F)(F)C(F)(F)C(F)(F)C(F)(F)C(F)(F)C(F)(F)C(F)(F)Br	CYP1A2	inhibitor	–	Tox21 screening	–	IC50	inactive
Cc1[nH]c(C)c(-c2ccc(OCc3ccccc3)cc2)c(=O)c1Br	Plasmodium falciparum	whole cell extended time	3D7	72 h	–	IC50	0.28 µM
COC(=O)N[C@H](C(=O)N1CCC[C@H]1c1nc(-c2ccc3c(c2)O[C@@H](c2ccccc2)n2c-3cc3cc(-c4c[nH]c([C@@H]5CCCN5C(=O)[C@@H](NC(=O)OC)C(C)C)n4)ccc32)c[nH]1)C(C)C	human BCRP (ABCG2)	–	–	literature geometric mean	–	IC50	0.15 µM
O=S(=O)(O)C(F)(F)F	CYP1A2	inhibitor	–	Tox21 screening	–	IC50	inactive
CN(C)C/C=C/C(=O)Nc1cc2c(Nc3ccc(F)c(Cl)c3)ncnc2cc1O[C@H]1CCOC1	ABCG2	–	H460/MX20	–	–	IC50	> 1 µM
CNC(C)C1CCC(N)C(OC2C(N)CC(N)C(OC3OCC(C)(O)C(NC)C3O)C2O)O1 (stereo not shown)	Klebsiella pneumoniae	–	clinical isolate RKI-No_164/16	–	–	MIC	> 8 µg/mL

A few entries again:
SMILES	target or system	assay	test system	setting	scale	quantity	result
COc1cc(Nc2ncc(F)c(Nc3ccc4c(n3)NC(=O)C(C)(C)O4)n2)cc(OC)c1OC	human BCRP (ABCG2)	–	–	literature geometric mean	–	IC50	0.28 µM
